{"data": "Assay results gathered from unrelated publications", "target": "Alpha-1A adrenergic receptor (ADRA1A, Homo sapiens, UniProt P35348)", "note": "Each line is one published result; not all experiments were run side by side. Several values in a cell are separate wells, animals, samples, runs or records. ± gives the spread as reported."}
{"Compound": "CS(C)(=O)=Nc1ccc(-c2ccc(-c3nc4cc(O[C@@H]5CO[C@H]6[C@@H]5OC[C@H]6O)[nH]c4cc3F)cc2)cc1", "assay": "calcium signal, antagonist", "conditions": "10 µM", "measurement": "inhibition", "result": "38%"}
{"Compound": "Cc1cc(-c2ccc3ccccc3c2)nnc1NCCN1CCN(C)CC1", "assay": "antagonist", "conditions": "concentration not given", "measurement": "antagonist activity", "result": "negative"}
{"Compound": "CCc1cc2c3c(c1OC)-c1cc4c(cc1CC3N(C)CC2)OCO4 (racemic)", "assay": "calcium flux, antagonist, FLIPR", "system": "CHO-K1", "conditions": "with: norepinephrine", "measurement": "apparent Kb", "result": "275 ± 12 nM"}
{"Compound": "CCN(CC)C(=O)[C@@H]1C=C2c3cccc4c3c(cn4C(=O)c3ccco3)C[C@H]2N(C)C1", "assay": "radioligand binding", "conditions": "10 µM", "measurement": "inhibition", "result": "< 50%"}
{"Compound": "N[C@H](C(=O)N1CCCC1)C1CCN(c2nccc3c(-c4ncc(Cl)cc4Cl)cccc23)CC1", "assay": "functional response, antagonist", "conditions": "10 µM", "measurement": "inhibition", "result": "37%"}
{"Compound": "Cc1ccc2oc(=O)cc(CN3CCCCC3)c2c1", "assay": "intracellular Ca2+ mobilization, agonist", "system": "COS-7", "conditions": "500 µM", "scale": "reference: 3 µM ionomycin", "measurement": "agonist activity", "result": "6.32 ± 3.54%"}
{"Compound": "C/C(=N\\OCCCN1CCCCC1)c1ccc(C(F)(F)F)cc1", "assay": "agonist, IP-One", "conditions": "10 µM", "measurement": "activation", "result": "2.43%"}
{"Compound": "CCN(CC)CCOc1ccc(-c2nnn(Cc3ccc(OC)cc3)c2N)cc1", "assay": "radioligand binding", "system": "HEK293", "conditions": "10 µM, safety profiling", "measurement": "inhibition", "result": "19.5%"}
{"Compound": "COc1c(O)c(Cl)c2c3c1-c1cc4c(cc1CC3N(C)CC2)OCO4 (racemic)", "assay": "calcium flux, antagonist, FLIPR", "system": "CHO-K1", "conditions": "with: norepinephrine", "measurement": "apparent Kb", "result": "1280 nM"}
{"Compound": "CCOC(=O)[C@](CC)(CCCSCCOCCOCCNC(=O)c1ccc(-c2c3ccc(=N)c(S(=O)(=O)O)c-3oc3c(S(=O)(=O)O)c(N)ccc23)c(C(=O)O)c1)NC(=O)c1ccc(C2CC2)c(Cc2ccc(F)cc2)n1", "assay": "ligand displacement, radioligand", "conditions": "10 µM", "measurement": "inhibition", "result": "0%"}
{"Compound": "CCc1nnc(-c2c(OC)cc(-c3cnc4cc(-c5cnn(C)c5)ccn34)cc2OC)o1", "assay": "antagonist radioligand, radioligand binding", "conditions": "10 µM, SafetyScreen44 alpha 1 A replicate 2", "scale": "lower = stronger displacement", "measurement": "remaining binding", "result": "63.2%"}
{"Compound": "CCCO[C@H]1[C@H](O)[C@@H](N)[C@@H](O[C@H]2[C@H](O[C@@H]3O[C@H](CO)[C@@H](O[C@H]4O[C@@H](CN)[C@@H](O)[C@H](O)[C@H]4N)[C@H]3O)[C@@H](O)[C@H](N)C[C@@H]2N)O[C@@H]1CO", "assay": "radioligand binding", "conditions": "10 µM, 1% DMSO", "measurement": "specific binding", "result": "0%"}
{"Compound": "C[C@@H]1COCCN1c1nc(NCc2cccnc2C(F)(F)F)c2cccnc2n1", "assay": "binding", "conditions": "CEREP panel", "measurement": "IC50", "result": "> 100000 nM"}
{"Compound": "Cc1cc(Nc2nc(C[C@@]3(C(=O)O)CCN(Cc4cccc(Cl)c4F)[C@H](C)C3)cc(C)c2F)[nH]n1", "assay": "inhibitor", "conditions": "10 µM", "measurement": "inhibition", "result": "-1.06%"}
{"Compound": "O=C(O)c1ccc(-c2nc(-c3ccccc3Cl)c3sccn23)cc1", "assay": "radioligand binding", "conditions": "10 µM, with: WB4101", "scale": "reference: control", "measurement": "specific binding", "result": "88.6% and 102%"}
{"note": "Repeated from above:"}
{"Compound": "CCN(CC)C(=O)[C@@H]1C=C2c3cccc4c3c(cn4C(=O)c3ccco3)C[C@H]2N(C)C1", "assay": "radioligand binding", "conditions": "10 µM", "measurement": "inhibition", "result": "< 50%"}
{"Compound": "N[C@H](C(=O)N1CCCC1)C1CCN(c2nccc3c(-c4ncc(Cl)cc4Cl)cccc23)CC1", "assay": "functional response, antagonist", "conditions": "10 µM", "measurement": "inhibition", "result": "37%"}
